Measured values from different studies.
Compare with care: the assays were run in different laboratories. Values joined by “and” are separate records of one study, mostly repeats; a detail may differ. Numbers after ± are the reported error.
Glutamate receptor 2: Glutamate receptor 2 (Homo sapiens, UniProt P42262)
Genome polyprotein NS3 helicase domain: Genome polyprotein, NS3 helicase domain (Hepatitis C virus genotype 1b, UniProt Q9WMX2)
WEE1: Wee1-like protein kinase (WEE1, Homo sapiens, UniProt P30291)
KCNQ3/KCNQ2: Voltage-gated potassium channel, KQT; KCNQ2(Kv7.2)/KCNQ3(Kv7.3) (KCNQ3/KCNQ2, Homo sapiens, UniProt O43525+O43526)
DRD3: D(3) dopamine receptor (DRD3, Homo sapiens, UniProt P35462)

| SMILES | target | test | test system | setting | inhibition |
| --- | --- | --- | --- | --- | --- |
| Cn1c(=O)c2[nH]cnc2n(C)c1=O | Glutamate receptor 2 | ion current, negative allosteric modulator, SyncroPatch patch clamp | HEK293 | 10 µM | 2% |
| COc1cc2c(cc1OC)-c1c/c(=N\c3c(C)cc(C)cc3C)n(C)c(=O)n1CC2 | Genome polyprotein NS3 helicase domain | DNA binding, inhibitor | hepatitis C virus | 100 µM, with: Cy5-dT15 DNA | 1% |
| CC[C@@H]1[C@H](F)C(=O)N[C@@H]1COc1nccc2cc(C(N)=O)c(OC)cc12 | WEE1 | ATP-site probe binding, ActivX profiling | THP-1 cell lysate | 0.2 mM, Lys2 site | 3.2% |
| NCCC[C@H](N)C(=O)O | Cationic amino acid transporter 8 (NPT1, Plasmodium vivax, UniProt A5K9W3) | – | – | 100 µM | 70.3% |
| CC[C@H](C)[C@@H]1NC(=O)[C@H](CCCNC(=N)N)NC(=O)[C@H](CCCNC(=N)N)NC(=O)[C@H](CCCCN)NC(=O)CNC(=O)[C@H](CCCNC(=N)N)NC(=O)[C@H]([C@@H](C)O)NC(=O)[C@H](CCCNC(=N)N)NC(=O)[C@H](C(C)C)NC(=O)[C@H](CCCNC(=N)N)NC(=O)[C@@H]2CCCN2C(=O)[C@H]2CCCN2C(=O)[C@H](CCCNC(=N)N)NC(=O)[C@H](CCCNC(=N)N)NC1=O | human Dicer | pre-miR21 processing, denaturing gel | – | 100 nM, 90 min, 37 °C | 25% |
| CC(C)NCC(O)COc1cccc2ccccc12 (stereo not shown) | KCNQ3/KCNQ2 | ion current, antagonist, SyncroPatch patch clamp | HEK293 | 30 µM | 38% |
| Clc1cccc(OC[C@@H]2CN(CCN3CCc4ccccc43)CCO2)c1 | DRD3 | radioligand binding | – | concentration not given, with: [3H]N-methylspiperone | 52% |
| CN(C)C1CCN(CC#Cc2nn(C3CCCC3)c3nc(NCc4ccccc4)ncc23)C1 (stereo not shown) | TAOK2 (Homo sapiens, UniProt Q9UL54) | enzyme activity, inhibitor, Z'-LYTE | – | 10000 nM | 5% |
| CN(C(=O)n1cnc(-c2ccc[n+]([O-])c2)c1)C1CCCCC1 | choline acetyltransferase | enzyme activity | – | concentration not given | 0.92% |
| Cl.O=C(O)C1=CCCN(CCON=C(c2ccccc2)c2ccccc2)C1 | Genome polyprotein NS3 helicase domain | DNA binding, inhibitor | hepatitis C virus | 100 µM, with: Cy5-dT15 DNA | 1% |
| c1cncc(OC[C@H]2CN(CCN3CCc4ccccc43)CCO2)c1 | DRD3 | radioligand binding | – | concentration not given, with: [3H]N-methylspiperone | 26.7% |
| [2H]c1cc(C)c(NC(=O)c2cnc(Nc3cc(N4CCCCC4)nc(C)n3)s2)c(Cl)c1 | SRMS (Homo sapiens, UniProt Q9H3Y6) | – | – | 0.01 µM | 30 to 90% |
| CCCCCC1NCCc2cc(O)c(O)cc21 (stereo not shown) | tyrosinase | enzyme activity, inhibitor | – | 100 µM, with: L-DOPA substrate | 0.37 ± 1.76% |
| C[C@H]1c2nn(C)cc2[C@H]2C[C@@H]1N(Cc1ccccc1)C[C@]2(C)O | OPRK1 (Cavia porcellus, UniProt P41144) | binding | guinea pig brain | 1 µM, with: [3H]U-69593 | 5% |
| Cn1cc(-n2cnc3c(NCc4nc5cc(Cl)c(Cl)cc5[nH]4)nc(N4CCOCC4)nc32)cn1 | Cyclin-dependent kinase 12, with cyclin K (CDK12, Homo sapiens, UniProt Q9NYV4) | kinase activity, inhibitor, ADP-Glo | – | 0.0003 µM | 11.5% |
| Cc1ccc(OC[C@H]2CN(CCN3CCc4ccccc43)CCO2)cn1 | DRD3 | radioligand binding | – | concentration not given, with: [3H]N-methylspiperone | 37.7% |
| NCCCCCCCCCCN | Genome polyprotein NS3 helicase domain | DNA binding, inhibitor | hepatitis C virus | 100 µM, with: Cy5-dT15 DNA | 2% |
| Oc1ccc(C2NCCc3cc(O)c(O)cc32)cc1O (stereo not shown) | tyrosinase | enzyme activity, inhibitor | – | 100 µM, with: levodopa | 10.3 ± 0.9% |
| c1ccc(OC[C@@H]2CN(CCN3CCc4ccccc43)CCO2)cc1 | DRD3 | radioligand binding | – | concentration not given, with: [3H]N-methylspiperone | 72.7% |
| COC(=O)C(N)Cc1ccc(Cl)cc1.Cl (racemic) | Genome polyprotein NS3 helicase domain | DNA binding, inhibitor | hepatitis C virus | 100 µM, with: Cy5-dT15 DNA | 1% |
| COc1cc2c(Nc3ccc(Br)cc3F)ncnc2cc1OCC1CCN(C)CC1 | IGF1R (Homo sapiens, UniProt P08069) | inhibitor, radiometric phosphocellulose | – | 10 µM, with: ATP 0.2 mM | 35% |
| Nc1c(Br)cc(Br)cc1CN[C@H]1CC[C@H](O)CC1 | Glutamate receptor 2 | ion current, negative allosteric modulator, SyncroPatch patch clamp | HEK293 | 30 µM | 20% |
| O=C(CN1CCO[C@H](COc2cccnc2)C1)N1CCc2ccccc21 | DRD3 | radioligand binding | – | concentration not given, with: [3H]N-methylspiperone | 11.7% |

| SMILES | target | test | test system | setting | inhibition |
| --- | --- | --- | --- | --- | --- |
| C[N+]1(C)[C@@H]2C[C@@H](OC(=O)[C@H](CO)c3ccccc3)C[C@H]1[C@@H]1O[C@@H]12 | Genome polyprotein NS3 helicase domain | DNA binding, inhibitor | hepatitis C virus | 100 µM, with: Cy5-dT15 DNA | 0% |
| COc1cc(C(=O)NS(=O)(=O)c2ccccc2C)ccc1Cc1cn(C)c2ccc(NC(=O)OC3CCCC3)cc12 | LRRC8A/LRRC8C (Homo sapiens, UniProt Q8IWT6+Q8TDW0, Y124F/Y126F) | ion current, whole-cell patch clamp | HCT LRRC8-/- cells | 10 µM, +100 mV, Y124F/Y126F heteromers | -7.2% and 39.8% and -0.192% and 18.9% and 61.6% |
| COc1cc(NC(C)=O)c(Cl)cc1C(=O)Nc1nccs1 | MTNR1B (Homo sapiens, UniProt P49286) | – | – | 10 µM | 28.8% |
| CCN1CCN(Cc2ccc(NC(=O)c3ccc(C)c(/C=C/c4cnc5[nH]ccc5c4OC)c3)cc2C(F)(F)F)CC1 | WEE1 | – | A-375 | concentration not given | -0.134% |
| Cc1cc(-c2ccnc3[nH]cc(F)c23)cc(F)c1[C@@]1(O)[C@H](C)CN(C2CCS(=O)(=O)CC2)C[C@@H]1C | CDK11 and CDK8 | ATP probe binding, KiNativ, measured: Lys2 site | HEK293T cell lysate | 0.1 µM | 8.9% |
| CC12CC3CC(C)(C1)CC(N)(C3)C2 | KCNQ3/KCNQ2 | ion current, antagonist, SyncroPatch patch clamp | HEK293 | 3 µM | 0% |
| COc1ccc2c(c1)CN(CCCN1CCN(c3ccccc3OC)CC1)C2=O | DRD3 | radioligand binding | – | concentration not given, with: [3H]N-methylspiperone | 94.7% |
| NS(=O)(=O)NC[C@@H](CO)NCc1c[nH]c2c(O)nc(O)nc12 | Hypoxanthine-guanine-xanthine phosphoribosyltransferase (Plasmodium falciparum, UniProt P20035) | enzyme activity, inhibitor, coupled IMPDH | – | up to 100 µM | inactive |
| CNc1cccc2cc(C(=O)Nc3ccc(C(=O)O)cc3)c(=O)[nH]c12 | Protein kinase C beta type, beta-II isoform (PRKCB, Homo sapiens, UniProt P05771) | – | – | 10 µM | 3.9% |
| O=C(O)CN(CCN(CC(=O)O)CC(=O)O)CC(=O)O | Hydroxyacylglutathione hydrolase, mitochondrial (Homo sapiens, UniProt Q16775) | glyoxylase II activity | – | 500 µM | 41% |
| C=CC(N)CCC(=O)O (racemic) | Genome polyprotein NS3 helicase domain | DNA binding, inhibitor | hepatitis C virus | 100 µM, with: Cy5-dT15 DNA | 0% |
| CC(C)c1noc2ncc(C(=O)c3ccccc3O)cc12 | Asic1 (Rattus norvegicus, UniProt P55926) | ion current, whole-cell patch-clamp | – | 10 µM, rASIC1a | 6.56% |
| Oc1cc2c(cc1O)C(Cc1ccccc1)NCC2 (stereo not shown) | tyrosinase | enzyme activity, inhibitor | – | 100 µM, with: levodopa | 28.8 ± 2.15% |
| O=C1NC(=O)C(c2ccccc2)(c2ccccc2)N1 | Glutamate receptor 2 | ion current, negative allosteric modulator, SyncroPatch patch clamp | HEK293 | 3 µM | 7% |
| Nc1ccc(N2C(=O)c3ccccc3C2=O)c(Cl)c1 | Genome polyprotein NS3 helicase domain | DNA binding, inhibitor | hepatitis C virus | 100 µM, with: Cy5-dT15 DNA | 0% |
| O=C(NO)c1ccc(CN2CCCCc3ccccc32)c(F)c1 | CHRM3 (Homo sapiens, UniProt P20309) | radioligand binding, radioligand displacement | – | 10 µM, mean of replicates | -28.7% |
| CN1CCN(c2cc(-c3ccncc3)c(-c3ccc4ccccc4c3)nn2)CC1 | SSTR4 (Homo sapiens, UniProt P31391) | antagonist, FLIPR | – | 10 µM | 5.7% |
| CCCN1C[C@H](CSC)C[C@@H]2c3cccc4[nH]cc(c34)C[C@H]21 | Glutamate receptor 2 | ion current, negative allosteric modulator, SyncroPatch patch clamp | HEK293 | 10 µM | 4% |
| CC/C(=N\NC(=O)NCc1cccc(O)c1)c1ccc(O)c(C)c1O | MAP2K4 (Homo sapiens, UniProt P45985) | kinase activity | – | 0.1 µM | 0.9% |
| CNCc1ccc(-c2cc(-c3nc(-c4ccc(S(=O)(=O)C(C)C)cc4)cnc3N)on2)cc1 | Protein kinase C beta type, isoform beta-II (PRKCB, Homo sapiens, UniProt P05771) | enzyme activity | – | 2 µM, with: ATP at Km | 7% |
| NC/C(=C\F)COc1cccc(Cn2c(=S)[nH]c(=O)c3[nH]cnc32)c1 | AOC1 (Homo sapiens, UniProt P19801) | enzyme activity, inhibitor | – | 30 µM | 56.7% |
| CC(C)NC[C@H](O)c1ccc(O)c(O)c1.O=C(O)C(O)C(O)C(=O)O | Genome polyprotein NS3 helicase domain | DNA binding, inhibitor | hepatitis C virus | 100 µM, with: Cy5-dT15 DNA | 3% |
| CCN(Cc1ccccc1C(F)(F)F)C(=O)C1CCN(S(=O)(=O)c2ccc3[nH]ncc3c2)CC1 | mouse phorbol ester site | radioligand binding | – | 10 µM | 2% |

Excerpt of the above:
| SMILES | target | test | test system | setting | inhibition |
| --- | --- | --- | --- | --- | --- |
| Cc1ccc(OC[C@H]2CN(CCN3CCc4ccccc43)CCO2)cn1 | DRD3 | radioligand binding | – | concentration not given, with: [3H]N-methylspiperone | 37.7% |
| CCCN1C[C@H](CSC)C[C@@H]2c3cccc4[nH]cc(c34)C[C@H]21 | Glutamate receptor 2 | ion current, negative allosteric modulator, SyncroPatch patch clamp | HEK293 | 10 µM | 4% |
| CN(C)C1CCN(CC#Cc2nn(C3CCCC3)c3nc(NCc4ccccc4)ncc23)C1 (stereo not shown) | TAOK2 (Homo sapiens, UniProt Q9UL54) | enzyme activity, inhibitor, Z'-LYTE | – | 10000 nM | 5% |
| [2H]c1cc(C)c(NC(=O)c2cnc(Nc3cc(N4CCCCC4)nc(C)n3)s2)c(Cl)c1 | SRMS (Homo sapiens, UniProt Q9H3Y6) | – | – | 0.01 µM | 30 to 90% |
| COc1ccc2c(c1)CN(CCCN1CCN(c3ccccc3OC)CC1)C2=O | DRD3 | radioligand binding | – | concentration not given, with: [3H]N-methylspiperone | 94.7% |
| C[C@H]1c2nn(C)cc2[C@H]2C[C@@H]1N(Cc1ccccc1)C[C@]2(C)O | OPRK1 (Cavia porcellus, UniProt P41144) | binding | guinea pig brain | 1 µM, with: [3H]U-69593 | 5% |
